Assay results pooled from the literature.
A part holds a random share of what one study measured.

Set 1
Target: Centromere-binding protein 1, full length, N-terminal tag (CBF1, Saccharomyces cerevisiae, UniProt P17106, residues 1-351)
UniProt P17106, sequence (whole entry, looked up): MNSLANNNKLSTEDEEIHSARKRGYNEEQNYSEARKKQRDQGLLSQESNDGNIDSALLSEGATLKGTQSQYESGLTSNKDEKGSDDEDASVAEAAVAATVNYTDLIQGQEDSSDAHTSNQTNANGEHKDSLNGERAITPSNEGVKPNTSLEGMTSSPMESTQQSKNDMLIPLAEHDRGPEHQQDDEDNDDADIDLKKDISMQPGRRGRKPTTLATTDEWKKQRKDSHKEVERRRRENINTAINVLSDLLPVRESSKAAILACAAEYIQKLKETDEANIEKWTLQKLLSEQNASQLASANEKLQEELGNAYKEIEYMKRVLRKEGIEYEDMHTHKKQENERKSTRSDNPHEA
Method: protein-binding microarray
Molecule type: double-stranded DNA, one strand shown
Medium: in vitro
Tested at: 0.8 µM
Setting: whole 60-bp probe, no competitor
Direction: higher = stronger binding
All sequences stand within: … GTCTTGATTCGCTTGACGCTGCTG
Sequence | fluorescence intensity
GAAGAAAACAAACTTGGCGTGACTTGGCGTGGATAG | 712 a.u.
GAAAGTACTAAAAGTCACGAATTTAAAAATGCATAG | 616 a.u.
CTATGAAGGGTCGGTGACGTGGAAATTTTGACATTC | 546 a.u.
TGTACGAAGCTATGTGATCCAGTTATAGTAGTTAGG | 532 a.u.
GAATGGGAACCGCATGACGTGGCGGCCTTGGCATAG | 562 a.u.
GAAAAGCGTGTGTAACATCAAATAAGAGACAATTAG | 538 a.u.
GAAATCATCGTCCACCACGCCCCTTCCTTTTTCTAG | 527 a.u.

Set 2
Target: Prothrombin, mature alpha-thrombin (F2, Homo sapiens, UniProt P00734)
Method: aptamer microarray, sandwich
Molecule type: DNA with 2'F-ANA
Medium: in vitro
Tested at: 200 nM
Setting: whole 15-mer aptamer, many near background
Together with: Cy3 exosite-II aptamer, 400 nM
Direction: higher = stronger binding
Sequence: GGTTGGTGTGGTTGG
Modification | mean fluorescence intensity
2'F-ANA at 1 8 9 12 13 14 15 | 75.5 a.u.
2'F-ANA at 1 3 5 11 13 14 | 41.8 a.u.
2'F-ANA at 1 2 3 5 7 8 11 12 13 14 15 | 49.2 a.u.
2'F-ANA at 1 3 4 5 9 11 12 14 | 48.8 a.u.
2'F-ANA at 2 4 8 15 | 376 a.u.

Set 3
Target: Histone acetyltransferase KAT6A, winged helix 1, GST fusion (KAT6A, Homo sapiens, UniProt Q92794, residues 1-85)
Method: protein binding microarray
Molecule type: double-stranded DNA, one strand shown
Medium: in vitro
Tested at: not given
Setting: 8-mer, flanks averaged, mean of 2 arrays, mostly near background
Relative to: not given
Direction: higher = stronger binding
Target sequence (chain): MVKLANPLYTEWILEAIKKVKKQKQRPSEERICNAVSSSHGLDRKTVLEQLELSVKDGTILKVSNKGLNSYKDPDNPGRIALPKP
Sequence | E-score
GAAGGTGC | -0.0679
ATAACTTC | -0.144
ACGAAATC | -0.0335
TTCAGAAA | -0.173

Further values, each from its own experiment
Molecule | target | test | test system | setting | how to read | quantity | result
PhoQ, residues 284 288 289 292 302 303 AAQSYM | PhoP, residues 12 14 15 18 19 NMSFL (Escherichia coli, UniProt P23836) | Sort-seq, item: YFP reporter | E. coli | PhoQ-PhoP variant library, together with: 10 µM Mg2+ | relative to: high Mg2+ state, higher = stronger signaling | fold induction | 15.8

A few entries again (further values, each from its own experiment):
Molecule | target | test | test system | setting | how to read | quantity | result
PhoQ, residues 284 288 289 292 302 303 AAQSYM | PhoP, residues 12 14 15 18 19 NMSFL (Escherichia coli, UniProt P23836) | Sort-seq, item: YFP reporter | E. coli | PhoQ-PhoP variant library, together with: 10 µM Mg2+ | relative to: high Mg2+ state, higher = stronger signaling | fold induction | 15.8
